Assay results collected from several papers.
Parts stem from different laboratories: compare values within a part only. Several values in a cell are separate wells, animals, samples, runs or records. Changes are numbered by the printed parent chain.

Study 1 — observed: peptide-MHC binding; molecule type: peptide; tested at: concentration not given
Target: HLA class I histocompatibility antigen, A alpha chain, allele A*25:01 (Homo sapiens, UniProt P04439)
Molecule | binding
KLADYLLLQ | inactive
RLMRTNFLI | inactive
GLSFLNPEK | inactive
VKINIFPLY | inactive
WMFRIRIIL | inactive
TPSGKRLQI | inactive
AGGWVLWKV | inactive
DHIPIINTL | inactive
FTFDLTALK | inactive
FQWHEAMFL | inactive
LICYQIEYI | inactive
RLKHIFLIF | inactive
RTFDRFFEE | inactive
DEFLKVPEW | inactive
QLEVRSTEV | inactive
EKDSNHNVL | inactive
IVDCLTEMYY | inactive
QYLFSLTYV | inactive
WQQWDRQSL | inactive
MPFDPSELV | inactive
RTVSVMFFI | inactive
SQFNHWFGE | inactive
FPIPTEVVA | inactive
FLAAECPFL | inactive
PLFPGITRV | inactive

Study 2 — method: EMSA with sequencing; molecule type: double-stranded DNA, one strand shown; medium: in vitro; tested at: 10 and 20 nM; reference: negative control set to 0; reading: higher = stronger binding
Target: Hepatocyte nuclear factor 3-alpha (Foxa1, Mus musculus, UniProt P35582, residues 1-468, full length assumed)
Setting: whole designed probe, mean of two concentrations, ends assumed
All sequences stand within: GTGAGCGGTGCCCATTGATGGGGAAC … TTTCACTGGGATCGTGGGGAC
Target sequence (chain): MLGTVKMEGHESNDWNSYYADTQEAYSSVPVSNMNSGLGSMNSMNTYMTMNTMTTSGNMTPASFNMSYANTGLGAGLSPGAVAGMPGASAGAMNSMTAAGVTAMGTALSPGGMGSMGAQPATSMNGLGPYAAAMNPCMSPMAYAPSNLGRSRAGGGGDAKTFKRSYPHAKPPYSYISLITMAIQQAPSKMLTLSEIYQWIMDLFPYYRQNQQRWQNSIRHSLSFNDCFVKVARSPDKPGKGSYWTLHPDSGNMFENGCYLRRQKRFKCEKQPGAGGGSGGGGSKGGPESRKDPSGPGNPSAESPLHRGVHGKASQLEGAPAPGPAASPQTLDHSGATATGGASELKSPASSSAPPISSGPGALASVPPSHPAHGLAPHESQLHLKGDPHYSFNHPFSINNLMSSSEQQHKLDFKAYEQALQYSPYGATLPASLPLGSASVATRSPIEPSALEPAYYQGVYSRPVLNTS
Sequence | normalised bound fraction [ratio]
ACTCTGTTCATATGGCACGTTTCCTGCATATCATTCAGCCATTCTTCTCTGACACGTTCTGAGACGGAGACTTACAGGAAATACAGGCCCTGTGTAAACACTTGAAACACAGACAAGCAAATACCCACGAGTCTTTATCGCTCTTGATTCTTGGCACAGTTCCTTGCATGTGGTAGAGGCCTAACAGTTTTTC | 0.405
CCCTCATCCTGGGTGTCGGGGTGGGAGGTGTTCTCATCATGAATGGGAGGCGTACCCAGATCCAGCTCTGCCTTTTTTTAACCAAACCAGAGTGTAAACAAATGGCTGTTAATCGACATAGCAAGTGACTCACCAGATATGATACATGCCAGGAGAGAAAAAGAAAGTGCTGATGGAAAAATAATCTCATTAG | 0.381
AATCCAGCTACCTATCTTCAGTTCCTTGGCCTTCAGCTGGCAGTGAAACAGACACATCAGCTTTAAGACTGGCAGCCAAATAGTTAACGATCTGTAAACATACATAGAGAGTTCCTGTTCATTACGCAAGAAACAGACTGGATGAAAGCCCTTCCATAAAGAACCCTTTAGGTGATGATGCTAAAATTATTTT | 0.156
AACAGTAACATGGCAACAGCTTAAATAAATAAGACAGTACATTGTTTAAGAAACAACTAATGTTCTGAGGTTTCAGTGATAACAACCACAAAGTAAACATGCAAGGTGGTAAGAAATACCTGGCATGAATGCCTTTTGTTAAAAGTTGAACCACAAGTGCATTTTTTTTTACACTCTACTGAAGTATTTTTGT | 0.486
GTCTCCTGGGGTTCTGCGAAATCTAGCCAGAAGCATCTCCATCTCGGTGTCCATTTCGATCCAACTAAGCTTCCAGTAAAGACACTGCAGCAATGTAATCTTGCAACCTAAGCTAGCATGAGGTTCTAGATAGTAAGCCTGAACTAGGAATAAGGCAACTGAACTGTGACTTTCGGGCCAGGGTCATCCAGCT | -0.0938
TGTATGAAATTTGTACAGAGGTGGAATCGTTTCTGCCATTTTTCACACACAAGTTGGTGCACATTCCTAATATGAATTAAAAATAAATATGCCATGTGTACACAGGGATGAGTCAACATTGCATGCAGCCAGCCATGGCCACTGGGAGAAGAGTCAGACATGGGCCATGGAGCTGCAGGCTCACCTGCCCCCG | 0.366
TGAAATCTCTCTTTATAAGTCACTCATAAACATGACTGCAGTCATATGCCTCACAGTTACTGTACTTTAATCTGCACTTGCTTCCTCCTACGTATTTACTTAAAGAGTCACAGCTTGCTGGAAATGTATCCTTCCTACTGTTGCTCTGTGTGTCTCCAACGGGGGGATTGGATCCTTGTATGTTTTTTTAACC | 0.334
ATATTCAGCAGAGTGGTCCTAGGTAGAACATTCTGTGTCAAAATATCAAAAGGCATTGACAAGAGAAATCGACAGAGAATTAGGTTAGCAGAGTAAACAGGTATTCTGTAACCTTCTCAAGTGCTGTGCCTGCTTAGGGAAATACTATTCTTATAAAGTCTTATTCTTCCGCATAATGAATAGTCATTTCCAC | 0.0896

Study 3 — observed: binding; method: radioligand binding; tested at: 10 µM
Target: D(1B) dopamine receptor (DRD5, Homo sapiens, UniProt P21918)
SMILES | inhibition [%]
Nc1c(C(=O)NCc2ccc(C(=O)NCCCC3CCCCC3)cc2)cnn1-c1ccccc1 | 28.4
Cc1cc(-n2nc(Cc3cc(F)cc(C(F)(F)F)c3)nc2C)ccc1C(N)=O | 14.3
Cc1c(N2CCCC2)nc2ccc(Br)cc2c1C(=O)NC[C@H](CCC(=O)O)c1ccccc1Cl | 25
CC(=O)N1CCC(c2ccc(C(=O)NC(=N)N)cc2C(F)(F)F)CC1 | -8.21
CN1C(=O)[C@@H](N2CCc3cn(Cc4ccccc4)nc3C2=O)COc2ccccc21 | 1.77

Study 4 — target: CCNB1, cyclin fold, Cln2 fusion (human); method: yeast growth competition, sequencing; medium: yeast; setting: weak parent motif; reference: not given; reading: higher = stronger binding
Starting sequence: SAMHD1 docking peptide (human); ASKSRVQLFKDDP
Substitution | normalised enrichment score
ASRSRVQLFKDDP [K3R] | 0.158
ASKSRVQLFKGDP [D11G] | 0.0458
ASKCRVQLFKDDP [S4C] | 1.29
AKKSRVQLFKDDP [S2K] | 0.055
ASKSRVQLFKDPP [D12P] | 0.349
ASKSRVFLFKDDP [Q7F] | 0.214
APKSRVQLFKDDP [S2P] | 0.375
ASWSRVQLFKDDP [K3W] | 0.359

Study 5 — partner: H2BC21 (Homo sapiens, UniProt Q16778); method: cross-linking MS; setting: hits only
Substance | interaction screen
H2BC17 (Homo sapiens, UniProt P23527) | cross-linked
H2BC5 (Homo sapiens, UniProt P58876) | cross-linked
H2BC11 (Homo sapiens, UniProt P06899) | cross-linked
H3-4 (Homo sapiens, UniProt Q16695) | cross-linked
Histone H2B type 1-C/E/F/G/I (Homo sapiens, UniProt P62807) | cross-linked

Further values, each from its own experiment
SMILES | cell line | method | tested at | time | endpoint | result
CC(C)(C)c1cnc(CSc2cnc(NC(=O)C3CCN(CCCCCSc4cccc5c4CN(C4CCC(=O)NC4=O)C5=O)CC3)s2)o1 (stereo not shown) | HEK293T | trypan blue exclusion | 250 nM | 24 h | viability | 87.2% and 92.8% and 97.4%

Repeated from above (study 1):
Molecule | binding
FLAAECPFL | inactive
RLMRTNFLI | inactive
RTFDRFFEE | inactive
